# Assay results collected from several papers.
# Each line is one published result; not all experiments were run side by side.
Compound,test,system,setting,scale,quantity,value
O=P(O)(O)C(Cl)(Cl)P(=O)(O)O,immunostaining,"mouse, SAH model, meninges","dose not given, day 1",baseline: total area,GFAP-positive area,7.13%
Cc1cc([C@H]2C[C@H]3[C@@H](CF)SC(N)=N[C@@]3(c3ccc(F)cc3F)CO2)on1,measured: Aβx-40,"Mus musculus wild-type, cerebrospinal fluid","subcutaneous, 100 mg/kg, 7 h",,Aβ40 level,0.44 ng/mL
CC(=O)NCCc1c[nH]c2ccc(O)cc12,"binding, MIDAS equilibrium dialysis LC-MS",A2AR-BRIL thermostabilized,concentration not given,baseline: no-protein control,log2 fold change,0.161
O=C(O)CNC(=O)Cc1ccccc1,,"ventricular cardiomyocytes, C57BL/6 mouse","dose not given, 0.648 s",,sarcomere length,1.72 µm
O=C(O)CC(C(=O)O)C(O)C(=O)O (racemic),"binding, MIDAS equilibrium dialysis LC-MS",A2AR-BRIL thermostabilized,concentration not given,baseline: no-protein control,log2 fold change,-0.244
NC(=O)c1cnc2[nH]ccc2c1N[C@@H]1[C@@H]2CC3C[C@H]1C[C@@](O)(C3)C2,"CD8+ central memory T cells, flow cytometry","Japanese humans, peripheral blood",200 mg single dose,baseline: baseline,percent change,0.13%
C[C@H](Oc1ccc(Br)cc1-c1ccon1)C(=O)O,first response peak,"human, tibialis anterior muscle","800 mg, 30-15 Hz, SAD",,difference from placebo,-0.641%
CC(C)NCC(O)c1ccc(O)c(O)c1 (stereo not shown),,"ventricular cardiomyocytes, C57BL/6 mouse","dose not given, 0.204 s",,sarcomere length,1.49 µm
N#Cc1ccn2c(-c3ccncc3)c(-c3ccc(F)cc3)nc2c1,"kinase binding, competitor, MIB/MS competition, measured: PKH3",Candida albicans cell lysate,10 µM,baseline: DMSO,log2 fold change,-0.16
C[C@@H](O)[C@H](N)C(=O)O,"binding, MIDAS equilibrium dialysis LC-MS",A2AR-BRIL thermostabilized,concentration not given,baseline: no-protein control,log2 fold change,-0.126
N#Cc1ccc2c(c1)[C@H]1CCCN(C(=O)c3ccc4[nH]cnc4c3)[C@H]1C2,,"T2DM patients with overweight or obesity, plasma","oral, 10 mg, day 15 (360 h), multiple dosing, mean",,fasting plasma glucose,128 mg/dL
O=c1ccn([C@H]2C[C@H](O)[C@@H](CO)O2)c(=O)[nH]1,"binding, MIDAS equilibrium dialysis LC-MS",A2AR-BRIL thermostabilized,concentration not given,baseline: no-protein control,log2 fold change,0.0927
OC(CCN1CCCCC1)(c1ccccc1)C1CC2C=CC1C2 (stereo not shown),resting-state EEG,healthy elderly humans,"oral, 2 mg, eyes open, LS mean",baseline: baseline,"change, EEG Alpha power, in O1-Pz",9.3%

# For quick reference, copied from above:
Compound,test,system,setting,scale,quantity,value
O=C(O)CNC(=O)Cc1ccccc1,,"ventricular cardiomyocytes, C57BL/6 mouse","dose not given, 0.648 s",,sarcomere length,1.72 µm
